Results gathered from unrelated publications.
Protocols differ between the studies behind these lines. Numbers after ± are the reported error.
KCNJ13 M125R: Inward rectifier potassium channel 13 (KCNJ13, Homo sapiens, UniProt O60928, M125R)
SUMO-activating enzyme subunit 2 with SAE1: SUMO-activating enzyme subunit 2, with SAE1 (Homo sapiens, UniProt Q9UBT2)

By UniProt entry, the sequences of proteins in these tests, tags left out. Residues count along the entry.
UniProt O60928, whole entry M125R: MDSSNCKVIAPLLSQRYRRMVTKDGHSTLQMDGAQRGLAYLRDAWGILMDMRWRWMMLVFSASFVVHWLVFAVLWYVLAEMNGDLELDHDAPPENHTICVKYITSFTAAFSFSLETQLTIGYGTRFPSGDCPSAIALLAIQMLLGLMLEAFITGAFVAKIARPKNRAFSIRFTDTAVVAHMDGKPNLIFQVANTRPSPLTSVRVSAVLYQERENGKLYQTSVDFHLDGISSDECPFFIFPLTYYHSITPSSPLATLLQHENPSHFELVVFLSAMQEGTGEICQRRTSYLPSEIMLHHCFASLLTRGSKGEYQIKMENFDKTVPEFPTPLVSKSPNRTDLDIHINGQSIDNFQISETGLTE
UniProt P08253, whole entry, looked up: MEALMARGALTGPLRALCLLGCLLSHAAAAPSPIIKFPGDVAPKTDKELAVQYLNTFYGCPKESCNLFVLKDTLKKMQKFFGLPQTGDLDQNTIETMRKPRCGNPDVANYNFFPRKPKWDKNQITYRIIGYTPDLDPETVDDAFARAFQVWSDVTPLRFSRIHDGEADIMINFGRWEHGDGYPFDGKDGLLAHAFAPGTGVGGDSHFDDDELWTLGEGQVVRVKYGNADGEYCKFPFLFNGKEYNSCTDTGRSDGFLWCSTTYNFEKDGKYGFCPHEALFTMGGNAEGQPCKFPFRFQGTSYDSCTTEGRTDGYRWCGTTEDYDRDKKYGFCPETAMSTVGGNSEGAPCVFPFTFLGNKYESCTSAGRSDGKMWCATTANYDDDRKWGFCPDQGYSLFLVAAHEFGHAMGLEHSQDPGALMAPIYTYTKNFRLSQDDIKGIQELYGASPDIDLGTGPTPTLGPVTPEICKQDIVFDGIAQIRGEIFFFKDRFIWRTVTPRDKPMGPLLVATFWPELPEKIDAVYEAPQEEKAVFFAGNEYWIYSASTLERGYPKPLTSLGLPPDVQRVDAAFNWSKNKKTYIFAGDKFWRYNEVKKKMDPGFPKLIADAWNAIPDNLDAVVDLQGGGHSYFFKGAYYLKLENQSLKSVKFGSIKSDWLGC
UniProt O43148, whole entry: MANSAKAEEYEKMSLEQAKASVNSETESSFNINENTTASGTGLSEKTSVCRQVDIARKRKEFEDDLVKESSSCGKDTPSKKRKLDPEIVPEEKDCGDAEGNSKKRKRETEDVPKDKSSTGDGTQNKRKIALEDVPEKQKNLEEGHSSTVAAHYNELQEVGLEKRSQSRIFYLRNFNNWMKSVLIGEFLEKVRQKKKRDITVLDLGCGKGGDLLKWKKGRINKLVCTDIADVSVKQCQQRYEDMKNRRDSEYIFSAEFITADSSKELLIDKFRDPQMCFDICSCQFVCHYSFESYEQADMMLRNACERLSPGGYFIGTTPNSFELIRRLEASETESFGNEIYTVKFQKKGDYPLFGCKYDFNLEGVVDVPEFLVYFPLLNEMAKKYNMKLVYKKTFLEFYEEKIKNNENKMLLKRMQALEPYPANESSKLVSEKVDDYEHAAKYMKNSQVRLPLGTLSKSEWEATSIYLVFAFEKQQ
UniProt P54098, whole entry: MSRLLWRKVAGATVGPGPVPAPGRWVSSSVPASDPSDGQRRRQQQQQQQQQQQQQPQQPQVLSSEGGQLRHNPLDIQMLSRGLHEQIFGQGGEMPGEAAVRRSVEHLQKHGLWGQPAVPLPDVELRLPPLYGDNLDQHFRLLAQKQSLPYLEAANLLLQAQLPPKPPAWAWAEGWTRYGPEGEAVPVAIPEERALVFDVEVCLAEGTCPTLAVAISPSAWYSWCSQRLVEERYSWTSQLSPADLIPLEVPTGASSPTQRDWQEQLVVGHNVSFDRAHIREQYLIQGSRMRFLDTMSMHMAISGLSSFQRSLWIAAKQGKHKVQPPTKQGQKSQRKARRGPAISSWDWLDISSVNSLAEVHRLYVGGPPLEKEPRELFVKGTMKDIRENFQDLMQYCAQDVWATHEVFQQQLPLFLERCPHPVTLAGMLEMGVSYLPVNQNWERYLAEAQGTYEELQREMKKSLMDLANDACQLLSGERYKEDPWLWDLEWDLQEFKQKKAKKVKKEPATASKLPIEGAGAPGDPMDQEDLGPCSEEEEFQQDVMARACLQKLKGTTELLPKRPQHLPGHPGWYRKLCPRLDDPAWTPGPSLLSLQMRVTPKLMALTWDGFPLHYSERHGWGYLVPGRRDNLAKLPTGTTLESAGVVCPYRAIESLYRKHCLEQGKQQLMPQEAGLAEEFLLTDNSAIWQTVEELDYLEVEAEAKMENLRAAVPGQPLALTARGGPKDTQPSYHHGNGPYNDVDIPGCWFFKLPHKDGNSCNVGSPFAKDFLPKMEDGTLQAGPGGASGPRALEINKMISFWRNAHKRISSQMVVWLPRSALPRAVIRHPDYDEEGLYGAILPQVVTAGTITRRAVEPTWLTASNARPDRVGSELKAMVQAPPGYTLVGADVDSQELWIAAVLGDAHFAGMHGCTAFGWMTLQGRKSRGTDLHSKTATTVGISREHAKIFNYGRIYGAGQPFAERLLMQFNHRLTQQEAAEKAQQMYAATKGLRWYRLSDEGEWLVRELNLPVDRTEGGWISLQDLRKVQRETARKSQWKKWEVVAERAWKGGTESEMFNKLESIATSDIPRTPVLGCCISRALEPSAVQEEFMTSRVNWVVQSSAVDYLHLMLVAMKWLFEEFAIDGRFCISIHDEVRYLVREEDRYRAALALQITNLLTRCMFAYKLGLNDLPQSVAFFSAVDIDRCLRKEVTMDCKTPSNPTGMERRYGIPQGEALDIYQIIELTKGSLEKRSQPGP
UniProt C4Z6Z2, 1-611: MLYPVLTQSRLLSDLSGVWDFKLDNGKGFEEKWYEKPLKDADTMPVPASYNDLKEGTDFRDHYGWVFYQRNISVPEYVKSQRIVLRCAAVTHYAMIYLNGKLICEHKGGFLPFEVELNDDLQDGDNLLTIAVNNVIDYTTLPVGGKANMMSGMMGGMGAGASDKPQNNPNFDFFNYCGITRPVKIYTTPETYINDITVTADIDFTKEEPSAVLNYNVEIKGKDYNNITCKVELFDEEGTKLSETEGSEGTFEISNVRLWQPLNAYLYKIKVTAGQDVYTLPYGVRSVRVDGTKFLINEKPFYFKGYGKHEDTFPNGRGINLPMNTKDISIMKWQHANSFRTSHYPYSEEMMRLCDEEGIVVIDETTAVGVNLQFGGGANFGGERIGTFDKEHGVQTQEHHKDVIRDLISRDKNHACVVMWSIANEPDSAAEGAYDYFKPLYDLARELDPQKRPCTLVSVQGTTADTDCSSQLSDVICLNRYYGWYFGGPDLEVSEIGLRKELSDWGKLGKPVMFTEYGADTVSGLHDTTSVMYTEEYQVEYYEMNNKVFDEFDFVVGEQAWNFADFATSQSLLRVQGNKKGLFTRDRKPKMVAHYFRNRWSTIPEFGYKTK
UniProt Q07440, whole entry P104K/C113S, looked up: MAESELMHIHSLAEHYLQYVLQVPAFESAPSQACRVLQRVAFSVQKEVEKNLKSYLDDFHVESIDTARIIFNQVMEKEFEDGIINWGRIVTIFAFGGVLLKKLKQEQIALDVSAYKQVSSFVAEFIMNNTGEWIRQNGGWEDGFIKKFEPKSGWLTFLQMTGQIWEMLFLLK
UniProt P05804, whole entry: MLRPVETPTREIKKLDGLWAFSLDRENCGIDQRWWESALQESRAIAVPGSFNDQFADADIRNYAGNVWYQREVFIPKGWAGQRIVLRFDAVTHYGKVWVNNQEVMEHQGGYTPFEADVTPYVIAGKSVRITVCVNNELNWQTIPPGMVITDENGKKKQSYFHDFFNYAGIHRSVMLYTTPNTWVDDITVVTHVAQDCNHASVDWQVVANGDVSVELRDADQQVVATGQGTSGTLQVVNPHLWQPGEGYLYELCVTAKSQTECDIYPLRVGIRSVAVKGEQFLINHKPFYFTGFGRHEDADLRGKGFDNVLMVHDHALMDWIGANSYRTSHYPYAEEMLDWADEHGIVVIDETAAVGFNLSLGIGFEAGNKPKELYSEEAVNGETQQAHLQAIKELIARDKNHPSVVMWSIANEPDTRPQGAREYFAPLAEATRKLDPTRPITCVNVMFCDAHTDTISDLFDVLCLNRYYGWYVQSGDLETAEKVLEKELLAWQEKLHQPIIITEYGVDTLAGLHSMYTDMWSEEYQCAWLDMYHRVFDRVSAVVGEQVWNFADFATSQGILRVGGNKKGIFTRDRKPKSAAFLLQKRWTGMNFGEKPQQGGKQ
UniProt Q9BJF5, 1-507: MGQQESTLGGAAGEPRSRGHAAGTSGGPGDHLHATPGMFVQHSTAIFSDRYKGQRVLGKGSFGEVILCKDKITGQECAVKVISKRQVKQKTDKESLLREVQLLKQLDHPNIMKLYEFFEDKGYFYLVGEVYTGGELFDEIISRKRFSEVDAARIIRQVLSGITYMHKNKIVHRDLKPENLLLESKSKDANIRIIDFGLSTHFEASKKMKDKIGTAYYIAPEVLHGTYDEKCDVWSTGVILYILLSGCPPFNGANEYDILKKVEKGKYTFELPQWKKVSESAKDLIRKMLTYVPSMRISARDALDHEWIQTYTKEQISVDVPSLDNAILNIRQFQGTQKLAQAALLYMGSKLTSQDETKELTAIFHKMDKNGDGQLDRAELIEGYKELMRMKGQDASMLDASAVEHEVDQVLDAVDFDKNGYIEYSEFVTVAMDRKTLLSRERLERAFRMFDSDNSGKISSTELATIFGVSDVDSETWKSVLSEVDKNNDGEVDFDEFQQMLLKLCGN

Compound | target | test | system | conditions | IC50 [µM]
Cc1cc(S(=O)(=O)NC(C(=O)NO)C2CCOCC2)ccc1F (racemic) | MMP2 (Homo sapiens, UniProt P08253) | enzyme activity, fluorogenic peptide cleavage | – | – | 4.4
CN1CCN(C(c2ccccc2)c2ccc(Cl)cc2)CC1 (centres unmarked) | RNMT (Homo sapiens, UniProt O43148) | enzyme activity, inhibitor | – | – | 227 ± 29
COc1ccccc1C(=O)NC1CCN(Cc2cc(Cl)c3cccnc3c2O)CC1 | KCNJ13 M125R | ion current, inhibitor, thallium flux | T-REx-HEK293 | – | 7.1
O=c1ccn([C@@H]2O[C@H](COP(=O)(O)OP(=O)(O)OP(=O)(O)O)[C@@H](O)[C@]2(F)Br)c(=O)[nH]1 | POLG (Homo sapiens, UniProt P54098) | polymerase activity, inhibitor | – | 37 °C | > 100
CNc1nc(N2CCNCC2)c2sc3nc(N4CCOCC4)ccc3c2n1 | Beta-glucuronidase (Lachnospira eligens, UniProt C4Z6Z2) | enzyme activity, inhibitor | – | – | 0.4 ± 0.1
O=[N+]([O-])c1ccc(N=Nc2c(S(=O)(=O)O)cc3cc(S(=O)(=O)O)ccc3c2O)c([N+](=O)[O-])c1 | Bcl-2-related protein A1 (Mus musculus, UniProt Q07440, C113S/P104K) | binding, fluorescence polarization | – | added: FITC-Noxa peptide | 45.8
CCOC(=O)NC1CCN(Cc2cc(Cl)c3cccnc3c2O)CC1 | KCNJ13 M125R | ion current, inhibitor, thallium flux | T-REx-HEK293 | – | 9.8
C=CC[C@@H](Nc1ccc(OC)cc1)C12C=CC(O1)C(C(=O)OC)=C2C(=O)OC (some centres unmarked) | SUMO-activating enzyme subunit 2 with SAE1 | SUMOylation, inhibitor, AlphaScreen | – | added: SUMO1-RanGAP1 conjugation | 22.1
c1cnc2sc3c(N4CCNCC4)ncnc3c2c1 | Beta-glucuronidase (uidA, Escherichia coli, UniProt P05804) | enzyme activity, inhibitor | – | – | 0.019 ± 0.003
NC(=O)c1cc(Sc2ccc(OC(F)(F)F)cc2)nc2ccccc12 | CDPK1 (Toxoplasma gondii, UniProt Q9BJF5) | kinase activity, inhibitor, ELISA | – | added: syntide-2 substrate, ATP 25 µM | 0.7
COC(=O)C1=C(C(=O)OC)C2([C@H](Cc3ccccc3)Nc3ccccc3)C=CC1O2 (some centres unmarked) | SUMO-activating enzyme subunit 2 with SAE1 | SUMOylation, inhibitor, AlphaScreen | – | added: SUMO1-RanGAP1 conjugation | 4.87
